# Measurements of several laboratories.
# A part holds a random share of what one study measured. Positions count from the first letter of the parent shown.

# Block 1
# Target: Microphthalmia-associated transcription factor, full length (MITF, Homo sapiens, UniProt O75030-10, residues 1-413)
# Method: protein-binding microarray
# Molecule type: hairpin DNA
# Medium: in vitro
# Tested at: not given
# Setting: whole hairpin DNA, median over replicate spots
# Reference: not given
# Direction: higher = stronger binding
Oligonucleotide,median fluorescence
GAGGCCTCGCACGTGCTGCCTCCTGGCAGCACGTGCGAGGCCTCACACTC (5mC at 36),18200 a.u.
CACTTAGCACGTCATTTTGGTCCTCCAAAATGACGTGCTAAGTGACACTC,4990 a.u.
CACTTAGCTCGTGATTTTGGTCCTCCAAAATCACGAGCTAAGTGACACTC,15900 a.u.
GAGGCCCGGCACGTGCTGCCTCCTGGCAGCACGTGCCGGGCCTCACACTC,24300 a.u.
GAGGCCTAGCGCGTGCTGCCTCCTGGCAGCACGCGCTAGGCCTCACACTC (5mC at 10 34),12000 a.u.
GAGGCCTAGCAAGTGCTGCCTCCTGGCAGCACTTGCTAGGCCTCACACTC,5300 a.u.
CACTTAGCACGTGATTTTGGTCCTCCAAAATCACGTGCTAAGTGACACTC (5mC at 10),17500 a.u.
CACTTAGCGCGTGATTTTGGTCCTCCAAAATCACGCGCTAAGTGACACTC (5mC at 8 36),15000 a.u.

# Block 2
# Target: RING finger protein unkempt homolog, zinc fingers 1-6, GST-SBP tag (UNK, Homo sapiens, UniProt Q9C0B0, residues 30-357)
# Sequence of UniProt Q9C0B0 (30-357, looked up): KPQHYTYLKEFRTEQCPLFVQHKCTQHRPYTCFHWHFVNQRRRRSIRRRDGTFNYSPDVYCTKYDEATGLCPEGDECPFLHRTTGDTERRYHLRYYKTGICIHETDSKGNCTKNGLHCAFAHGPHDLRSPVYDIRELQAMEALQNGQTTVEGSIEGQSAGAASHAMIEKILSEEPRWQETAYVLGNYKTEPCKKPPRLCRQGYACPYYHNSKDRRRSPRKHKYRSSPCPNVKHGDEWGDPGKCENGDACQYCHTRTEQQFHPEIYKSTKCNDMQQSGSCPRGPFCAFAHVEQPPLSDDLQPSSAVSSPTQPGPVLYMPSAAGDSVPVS
# Method: RNA Bind-n-Seq
# Molecule type: RNA
# Medium: in vitro
# Tested at: not given
# Setting: RNA with constant flanks, human and mouse sites, ends assumed
# Reference: input RNA pool
# Direction: higher = stronger binding
Oligonucleotide,bound/input enrichment [ratio]
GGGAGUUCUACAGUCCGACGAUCAUAAGAUAAACCACGUUUUCCUUCUCGUUAUCCCAGGAAUGCCCUAAAGUGCACCCCCUUCCCUGAAUAUUCAUCAGGGACACACAUCUAUCUGUCCAGACCUCUUUUUGUAAAGUACUUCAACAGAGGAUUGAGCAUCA,0.379
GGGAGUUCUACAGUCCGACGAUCGUGCCCCGGCACCUCCGCGGGCGGCGCGCGUCGGGAUCGGCCGGAGCGGCGGCGUCUCCUUCGGCUGCGGCUGCGGGCGAGCGCCAGGCGCUGCUGACAGAUCCCUGUAUGUCGCUGAGUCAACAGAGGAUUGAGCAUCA,1.32
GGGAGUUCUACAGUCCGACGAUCUUUCUCACCGUGUACAUCAAAAACAUCUUUCUCAAUCAAGUCUUGGCUGAGAUCAACAAGGAGAUUGAAGGAGUCACUAAAACAUCUGACCCUUUGAAGAUUCUGGCCAACGCAGACACCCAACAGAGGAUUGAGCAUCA,0.165
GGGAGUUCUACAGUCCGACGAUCCUCGGCAGCACUGCGCAGCUCUCGAAUCUCUCGUGCUUCAACCUUUCUUUUCUUAUUGUUAAUAGGAAAAAAUCAACAUCUGUAAAUUAAGAAUACAGCAAUUAUCUGUACAGUACUGCACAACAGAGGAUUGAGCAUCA,0.122
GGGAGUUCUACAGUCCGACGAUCUUAUGUUUAUUGAUUAAAUAAUAUCAUUUGUCUUUCUGCAGUUAUGAGGCUGCUAGCCUGUGAGGGAAAACCUGUUUGUCUUAUUAGAGUUUCUCCCAAAAUGGUUUCAAAUUGGGAACUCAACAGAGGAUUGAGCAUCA,0.368
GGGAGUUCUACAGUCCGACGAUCUGCUCCUGUUCACAGUCCCACUGCUGCUCCAGAUACCUGUGCAUGGGAGCCCUGUCUUUGUGCCUACCCUGCUUGCUCUGCUACCCUCCCGCCAAGGGCUGCCUGAAGCUGUGCAGGGGCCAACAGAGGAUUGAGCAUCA,0.147
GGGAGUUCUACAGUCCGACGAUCAAGUUACAGAUUUUAGCCAGUCUUUGCUUUUAUACUUUUGUGAAAUUUAAUUUCUCUCUAUAGCACCUUCCUUUUUCGUUUUCAGUUAUCAAAAGUGACUUUGACCUCAUAAAAGAGUUGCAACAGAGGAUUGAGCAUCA,1.4
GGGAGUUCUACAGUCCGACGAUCGGAGGCUAUGGAGGCUAUGAUGAUUAUAAUGGCUAUAAUGAUGGCUAUGGAUUUGGUUCAGAUAGAUUUGGAAGAGACCUCAAUUAUUGUUUUUCAGGAAUGUCUGACCACAGAUAUGGGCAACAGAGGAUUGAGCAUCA,0.571

# Block 3
# Target: HLA class I histocompatibility antigen, A alpha chain, allele A*80:01 (Homo sapiens, UniProt P04439)
# Read-out: peptide-MHC binding
# Molecule type: peptide
# Tested at: concentration not given
Sequence,binding
SMHYKLDEV,inactive
STNTLPTEY,inactive
AQSDFMSWV,inactive
AENCYNLEI,inactive
AFHQLVQVI,inactive
LLDLEGHIL,inactive

# Block 4
# Target: CCND1, cyclin fold, Cln2 fusion (human)
# Method: yeast growth competition, sequencing
# Medium: yeast
# Setting: strong parent motif
# Reference: not given
# Direction: higher = stronger binding
# Parent: viral docking peptide; KGVKRKLFAEDSS
Substitution,normalised enrichment score
D11T,0.458
L7T,0.168
S12I,1.52
D11C,0.648
K4I,2.31
L7F,0.328
A9N,0.71

# A few entries again (block 2):
Oligonucleotide,bound/input enrichment [ratio]
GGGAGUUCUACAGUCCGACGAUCCUCGGCAGCACUGCGCAGCUCUCGAAUCUCUCGUGCUUCAACCUUUCUUUUCUUAUUGUUAAUAGGAAAAAAUCAACAUCUGUAAAUUAAGAAUACAGCAAUUAUCUGUACAGUACUGCACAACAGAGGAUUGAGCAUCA,0.122
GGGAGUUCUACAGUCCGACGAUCUUAUGUUUAUUGAUUAAAUAAUAUCAUUUGUCUUUCUGCAGUUAUGAGGCUGCUAGCCUGUGAGGGAAAACCUGUUUGUCUUAUUAGAGUUUCUCCCAAAAUGGUUUCAAAUUGGGAACUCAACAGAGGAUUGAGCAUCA,0.368
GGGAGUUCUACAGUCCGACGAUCUGCUCCUGUUCACAGUCCCACUGCUGCUCCAGAUACCUGUGCAUGGGAGCCCUGUCUUUGUGCCUACCCUGCUUGCUCUGCUACCCUCCCGCCAAGGGCUGCCUGAAGCUGUGCAGGGGCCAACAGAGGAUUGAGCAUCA,0.147
